Experimental data from different studies.
Parts stem from different laboratories: compare values within a part only.

Set 1 — technique: RNA Bind-n-Seq; molecule type: RNA; matrix: in vitro; tested at: not given; reference: input RNA pool; reading: higher = stronger binding
Target: RING finger protein unkempt homolog, zinc fingers 1-6, GST-SBP tag (UNK, Homo sapiens, UniProt Q9C0B0, residues 30-357)
Chain of UniProt Q9C0B0 (30-357, looked up): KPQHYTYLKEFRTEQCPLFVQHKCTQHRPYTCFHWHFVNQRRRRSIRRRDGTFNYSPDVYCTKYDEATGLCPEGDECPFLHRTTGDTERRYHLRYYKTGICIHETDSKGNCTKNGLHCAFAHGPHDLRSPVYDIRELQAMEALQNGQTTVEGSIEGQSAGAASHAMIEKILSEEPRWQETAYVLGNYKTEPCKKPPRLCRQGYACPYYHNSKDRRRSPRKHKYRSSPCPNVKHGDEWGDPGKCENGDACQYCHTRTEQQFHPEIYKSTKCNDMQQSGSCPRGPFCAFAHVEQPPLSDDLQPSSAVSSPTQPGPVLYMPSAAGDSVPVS
Setting: RNA with constant flanks, human and mouse sites, ends assumed
Constant ends, left off below: GGGAGUUCUACAGUCCGACGAUC … CAACAGAGGAUUGAGCAUCA
Strand | bound/input enrichment [ratio]
AUUAAUGCCCUUACUCUAUUUGAGAUUAUCUAUGACAAUCUCAGAGCAGAAGUGUUUAACUAUAGAGAAUUCAAUAAAGGUUCCCUUUUUUACUUAUGCACUACAUCUGGAGUGUGUGUU | 0.257
GCCAUAAUCCCCUACAUCCCUACUCUCAUCACUCAGCUUACACAGAAGCUAUUAGCUGUUAGUAAGAACCCAAGCAAACCUCACUUUAAUCACUACAUGUUUGAAGCAAUAUGUUUAUCC | 0.655
UUUAUAGAAAUCACUGAUGACCAGUUUGACUUUCAUACAUACUGUAUGAGGAAGAUUACCCUUAGAUCAUAUGUGGACUUAUUAAAACUAGAAGAUGUACUUCGACAGCAUCCAUUUUAC | 1.63
GAUACAUACUUAUUUGUGAAUCAUAUCCCUGUAAGUAAGACAAGAAACACUUCCUCAUUCUAGGUACAUAAUACACCAGCUUUAGCUUGUACCGAUUUGUGAGGUGUUAAGAUUUUGAGG | 0.393
UCUUGUUCAUCCCCUUGUAUUGUUUCUCCUUAUUGCUACAGUUAAUAGACAAAAAGGUAACUUAGACCCUUUUUUUUUUUUGGUUUGGCUUGAUAUUGUUUAGUAAAUGGCUAUACAAGU | 10.9
CAUAUUAAAUAUGACCCAGAAAUUAUUGGUCCUAGAGAUAUUAUCCAUACAAUUGAAAGCUUAGGUUUUGAAGCUUCUUUGGUCAAGAAGGAUCGGUCAGCAAGUCACUUAGAUCAUAAA | 3.57
CGCGGCUCGAACUUCACUGCCAUUUGUGUGCUGAAGGAGGCGUGUCUGCAGCAUUACUACGUGAAUGCCAGCUACAUCGUGUGGAAGACCAACCAUGCUGCUGUUCCCAGGGAGCAGGUC | 0.128
CCUGUUCUCAGUAAAGACCGCAACUUUCAUGUUUUCUUGGAAUAUGAUCAGGAUCUAAGUGUUAGACGGAAGAAUACCAAGGAGAUGUUUGGAGGCUUUUUUAAAAGUGUGGUGAAGAGC | 0.154
GAUUUUUGCAUUGGAAAAGCAGCACAUUCUCUGACCUUGGGUACCAAGCUAUGAUACUAAUUUGAGAAUCACAUUCUGAUACGUUAAUAUCAGAAAUCAGUGAGCAACCUAAUUGCUGUA | 0.199
AGUAGAAUUUUCCAGUGUUGUGCUUGGAAUGGUGGAGUGUUCUGGUUCAGUCUCCUCUUGUUUUAUCGAGUAUUUAUUCCUGUGCUUCAGUCGGUAACAGCCCGAAUUAUCGGUGACCCA | 0.417
GGCACAUGGGAAGAGAAAUCAGAUGAAAUUUCCUUUGCUGACUUCAAGUUCUCAGUCACUCAUCAUUAUCUUGUACAAGAGUCCACUGAUAAAGAAGGAAAGGAUGAGUUAUUAGAGGAU | 0.378

Set 2 — technique: protein binding microarray; molecule type: double-stranded DNA, one strand shown; matrix: in vitro; tested at: not given; reference: not given; reading: higher = stronger binding
Target: Histone acetyltransferase KAT6A, winged helix 1, GST fusion (KAT6A, Homo sapiens, UniProt Q92794, residues 1-85)
Setting: 8-mer, flanks averaged, mean of 2 arrays, mostly near background
Construct (chain): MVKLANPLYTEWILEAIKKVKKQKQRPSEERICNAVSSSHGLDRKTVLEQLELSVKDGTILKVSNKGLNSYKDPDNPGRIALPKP
Strand | E-score
ACCGTGTA | -0.0155
CGGCCTGC | 0.289
GAGTCGAA | -0.203
CGAGGTCA | -0.108
ATCTATTC | -0.136
ATTCGACC | -0.136
TGCGAGCA | -0.118
TGGTGACA | -0.157
GGCTGCAC | -0.00308
CGCAGCTC | 0.0249
ACAGCCCC | 0.118
CTCCGAAC | 0.133
AACGTCGC | 0.0965
GATAACAC | 0.069
CTGTGAAG | -0.135
ATTCATAA | 0.0581
CAGACGGG | 0.084
ACTACGAC | -0.122

Set 3 — technique: RNA Bind-n-Seq; molecule type: RNA; matrix: in vitro; tested at: 1 µM; setting: whole 134-nt RNA, ends assumed; together with: 150 mM KCl; reference: input library; reading: higher = stronger binding
Target: Ras GTPase-activating protein-binding protein 1, C-terminal RGG region (G3BP1, Homo sapiens, UniProt Q13283)
Chain of UniProt Q13283 (whole entry, looked up): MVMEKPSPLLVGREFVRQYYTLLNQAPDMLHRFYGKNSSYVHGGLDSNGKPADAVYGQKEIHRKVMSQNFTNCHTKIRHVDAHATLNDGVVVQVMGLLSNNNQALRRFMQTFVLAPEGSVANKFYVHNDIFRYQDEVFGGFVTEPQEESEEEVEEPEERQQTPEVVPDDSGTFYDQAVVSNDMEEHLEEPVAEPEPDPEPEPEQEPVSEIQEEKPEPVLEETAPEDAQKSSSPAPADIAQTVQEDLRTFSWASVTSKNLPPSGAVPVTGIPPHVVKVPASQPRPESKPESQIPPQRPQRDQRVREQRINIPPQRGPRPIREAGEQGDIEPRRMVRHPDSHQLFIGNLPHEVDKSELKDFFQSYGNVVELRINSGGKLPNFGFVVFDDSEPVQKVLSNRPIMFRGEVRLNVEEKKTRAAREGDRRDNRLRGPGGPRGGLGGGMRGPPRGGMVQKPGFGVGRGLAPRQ
Constant ends, left off below: GGGAGUUCUACAGUCCGACGAUC … UGGAAUUCUCGGGUGUCAAGG
Strand | log2 enrichment
CCUCAAGUCCUGUGCUACACAUCGUAUGUACCGAAUCGGGUGGGAGGGUGGGAAAGUAUUAUGUUACGCCGUUCGGAUCUGCACUUCCAG | 1.85
UAACUUUAGAGGAGGAUCUGAUGGAUAUGGCAGUGGACGUGGAUUUGGGGAUGGCUAUAAUGGGUAUGGAGGAGGAACUGGAGGUGGCAA | -0.802
UAACUUUAGAGGAGGAUCUGAUGGAUAUGGCAGUGGACGUGGAUUUGGGGAUGGCUAUAAUGGGUAUGGAGGGGGACCUGGAGGUGGCAA | -1.02
CACAGACAACACGCACCCACACAGACACAGAGGGAAGGAAAUGGGAUGGGGACAGGGUGCACAGCAGGGCGGGGUAGGACCCCAGCCCCU | -0.0526
UGUGCUACACAUCGUAUGUACCGAAUCGGUUUUUUUGGGGUUUUUUUGGGGUUUUUUUGGGGAAAGUAUUAUGUUACGCCGUUCGGAUCU | -0.819
CCUGUGCUACACAUCGUAUGUACCGAAUCGGUUUUUUUGGUUUUUUUGGUUUUUUUGGGGAAAGUAUUAUGUUACGCCGUUCGGAUCUGC | -1.95
CCUGUGCUACACAUCGUAUGUACCGAAUCGGGAAAAAAAGGGAAAAAAAGGAAAAAAAGGAAAGUAUUAUGUUACGCCGUUCGGAUCUGC | -1.63
UCAAGUCCUGUGCUACACAUCGUAUGUACCGAAUCGGGUUUGGGAAAGGGUGGGAAAGUAUUAUGUUACGCCGUUCGGAUCUGCACUUCC | 1.92
GAGGAGACUCUGCGCAGAGCACUUUGGGUCCGGAGGGCGAGACUCCGGCGGAAGCAUUCCCGGGCGGGUGACCCAGCACGGUCCCUCUUG | -1.8
UGGCCCUGGUGGCAUGCGGGUAGGAAGAGGUGGCCUCAUGGAUCGUGGUGGUCCCGGUGGAAUGUUCAGAGGUGGCCGUGGUGGAGACAG | 2.29
UAAGAAGGAAAUUGAGAGGAGAAAAACUGGAAAAGAAAUGUUGGAUUAUAAAAGAAAACAAGAAGAAGAAUUAACAAAAAGAAUGCUGGA | -1.33
ACCAUGCAGGUGGGCAUCUUUGGGAAGUGGGGCAAGGGGGGGAUAGGGAGGGGGGUAUCACUUUGGGAACAGGUGGUCCCAGGUCGUUUC | 1.93
CUGUGCUACACAUCGUAUGUACCGAAUCGGCCCCCCCGGGGCCCCCCCGGGCCCCCCCGGGGAAAGUAUUAUGUUACGCCGUUCGGAUCU | -2.4
GCAGGAAGUAAAAACAAAUGGAAAUGCUUCGGAUAGUGGCAGGGGUGGGGAAAGCUAAGGAAAGGGUGGGAUGGGAGUGGGUAAAGAGUU | 1.58

Set 4 — technique: protein-binding microarray; molecule type: double-stranded DNA, one strand shown; matrix: in vitro; tested at: 250 nM; setting: 60-bp whole probe; together with: salmon DNA 0.4 mg/ml; reference: random background probes; reading: higher = stronger binding; constant ends, left off below: GCCTAGCAC … GTCTTGATTCGCTTGACGCTGCTG
Target: Interferon regulatory factor 7, full length, phosphomimetic (IRF7, Homo sapiens, UniProt Q92985, residues 1-503, S101K/S471D/S472D/S475D/S476D/S477D/S483D/S484D/S487D)
Construct (chain): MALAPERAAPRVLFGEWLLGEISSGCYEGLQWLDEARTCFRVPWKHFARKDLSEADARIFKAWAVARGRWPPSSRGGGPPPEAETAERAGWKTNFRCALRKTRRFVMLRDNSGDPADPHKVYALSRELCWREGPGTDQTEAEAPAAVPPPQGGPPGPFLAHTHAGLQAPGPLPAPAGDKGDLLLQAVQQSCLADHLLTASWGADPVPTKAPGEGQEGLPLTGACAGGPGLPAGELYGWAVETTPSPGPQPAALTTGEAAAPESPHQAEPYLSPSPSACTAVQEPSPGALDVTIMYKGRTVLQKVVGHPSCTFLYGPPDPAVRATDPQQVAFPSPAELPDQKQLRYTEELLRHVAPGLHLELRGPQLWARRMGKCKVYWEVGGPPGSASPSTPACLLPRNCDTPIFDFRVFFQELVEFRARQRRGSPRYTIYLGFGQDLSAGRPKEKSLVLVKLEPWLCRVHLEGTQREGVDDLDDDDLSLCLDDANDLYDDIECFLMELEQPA
Strand | log fluorescence
GTAGGTTTCGACTATCGGTTAGTGCTA | 5.37 z-score
TTAGAACTGATACTGGATTAGTGCTAG | 0.125 z-score
TTAGGACTGTGTCTCGGTTAGTGCTAG | 0.403 z-score
GACGATCTCAGTATTGAGACGTGCTAG | -0.0559 z-score
TTAGGTATCCGGTTTCGGTTAGTGCTA | 6.9 z-score
TCAGTTTTACAGGTTCTCACTGTGCTA | 0.337 z-score
TTGTTTTTCATTATTGTCTCGTGCTAG | 2.05 z-score
TCATTTTACTTTCTATCACTGTGCTAG | 2.06 z-score
GACGGTTTCGGTGTCGGGACGTGCTAG | 3.78 z-score
AAAATTTTGCTTCTAGAACAGTGCTAG | -0.0892 z-score
GACCGTATCGGGTATCGGGACGTGCTA | 0.623 z-score
GACGATATCGCGTTTCGAGACGTGCTA | 0.795 z-score
GACGGTTTCGGGGTTCGGGACGTGCTA | 3.56 z-score
TCAGATTTCAGTTTTCTACTGTGCTAG | 0.745 z-score
GACGATTTCGGGACTCGAGACGTGCTA | 0.701 z-score
TCAAGTTTTCTTTTCCAACTGTGCTAG | 3.13 z-score
GACGATTTCGGGACTTGAGACGTGCTA | 0.0889 z-score
CACGAACTGGGGTTTCGAGACGTGCTA | 1.63 z-score
TCAGTTTTCAGCTGTTTTACTGTGCTA | 0.646 z-score
TAAGGTTTCGGGACTGGGTTAGTGCTA | 3.98 z-score
GACGAGTTCGGGTATCGAGACGTGCTA | 0.569 z-score
TGAGGTCTCCTTTTCCTTTAGTGCTAG | 1.13 z-score
GACGATTTCAGTATCGAGACGTGCTAG | 0.542 z-score
GAGGGACTGGGACTGGGGACGTGCTAG | -0.61 z-score
GAGGAACTGAGTTTCGAGACGTGCTAG | 4.25 z-score
